Measurements collected from several papers.
Numbered parts are unrelated; each lists some results of a single study. Values joined by “and” are separate records of one study, mostly repeats; a detail may differ.

Block 1 — cell line: U-87 MG; concentration: concentration not given; relative to: DMSO; quantity: log2 fold change
Compound: CCN1/C(=C/C=C2\CCCC(/C=C/C3=[N+](CC)c4ccccc4C3(C)C)=C2NCCCCCCCCN2CCC(Nc3nc4ccccc4n3Cc3ccc(F)cc3)CC2)C(C)(C)c2ccccc21
refers to: ITGB8 mRNA: -2.35
refers to: C4orf46 mRNA: -1.58
refers to: ST18 mRNA: -3.16
refers to: GJA1 mRNA: -2.36
refers to: DYM mRNA: 0.892
refers to: ADNP2 mRNA: 0.837
refers to: SDE2 mRNA: 0.938
refers to: GPR137B mRNA: 1.56

Block 2 — species: mice, male and female, formalin pain; route: intrathecal; with: formalin 5%, 20 µL intraplantar; direction: higher = more pain; quantity: licking and flinching time
SMILES: COc1cc(C(=O)OCCCN2CCCN(CCCOC(=O)c3cc(OC)c(OC)c(OCc4ccc([N+](=O)[O-])cc4)c3)CC2)cc(OC)c1OC
100 nmol, 25-30 min after formalin: 6.98 a.u. and 70.7 a.u. and 21.4 a.u. and 13 a.u. and 1.37 a.u. and 4.18 a.u. and 8.81 a.u. and 65.5 a.u.
100 nmol, 5-10 min after formalin: 16.1 a.u. and 8.9 a.u. and 8.25 a.u. and 7.19 a.u. and 19.2 a.u. and 8.39 a.u. and 3.01 a.u. and 27.2 a.u.
10 nmol, 20-25 min after formalin: 103 a.u. and 7.96 a.u. and 29.2 a.u. and 121 a.u. and 62 a.u. and 4.69 a.u. and 3.9 a.u. and 6.74 a.u.
1 nmol, 10-45 min: 193 a.u. and 426 a.u. and 296 a.u. and 148 a.u. and 348 a.u. and 307 a.u. and 266 a.u.
1 nmol, 40-45 min after formalin: 3.38 a.u. and 6.95 a.u. and 4.01 a.u. and 8.28 a.u. and 53.2 a.u. and 33.5 a.u. and 6.48 a.u. and 43.5 a.u.
10 nmol, 5-10 min after formalin: 38.1 a.u. and 11.8 a.u. and 38.4 a.u. and 0.96 a.u. and 37.9 a.u. and 63.5 a.u. and 21 a.u. and 47.3 a.u.
100 nmol, 40-45 min after formalin: 2.77 a.u. and 1.07 a.u. and 2.25 a.u. and 3.72 a.u. and 6.11 a.u. and 0.54 a.u. and 7.37 a.u. and 18.3 a.u.
10 nmol, 15-20 min after formalin: 63 a.u. and 14.1 a.u. and 2.23 a.u. and 61.3 a.u. and 75.5 a.u. and 15.2 a.u. and 7.39 a.u. and 57.6 a.u.

Mixed results
C#CCN1C(=O)C(O)(C(=O)O)Oc2cc(F)ccc21 (stereo not drawn)  root length (Arabidopsis thaliana; Col-0; 12.5 µg/mL, seed germination): 0.585 cm
Cn1cc(-c2cccc(CN3CCC4(CC3)COc3c4ccc4c3CN([C@H]3CCC(=O)NC3=O)C4=O)c2)cn1  Vz (cynomolgus monkey; intravenous, 1 mg/kg): 11.4 L/kg and 15.6 L/kg and 14.3 L/kg

Repeated from above (block 1):
refers to: ITGB8 mRNA: -2.35
refers to: DYM mRNA: 0.892
refers to: ST18 mRNA: -3.16
